Assay results collected from several papers.
Parts stem from different laboratories: compare values within a part only.

Set 1
Target: RNA binding protein fox-1 homolog 2, RRM domain, GST-SBP tag (RBFOX2, Homo sapiens, UniProt O43251-10, residues 100-194)
Method: RNA Bind-n-Seq
Form: RNA
Matrix: in vitro
Concentration: 365 nM
Setting: natural RNA segment, single round, ends assumed
Relative to: no-protein control
Reading: higher = stronger binding
Target sequence (chain): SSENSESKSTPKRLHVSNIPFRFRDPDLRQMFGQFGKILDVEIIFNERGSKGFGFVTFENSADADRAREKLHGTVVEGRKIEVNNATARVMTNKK
`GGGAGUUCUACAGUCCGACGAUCAAUACGCAGUUACAGGGUGUAGUCUGUUUAGAUUCCGUAGUUCGUGGGUAUCAGUUUCGGUAGAGGUGCAGCAUCGUGACACUUUUGCUAACAGGUACCACUUCUGAUCAUGGAAUUCUCGGGUGCCAA` — result for “RBNS enrichment (R)”: 1.1.
Under “RBNS enrichment (R)”, `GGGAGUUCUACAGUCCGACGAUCCCUCUCCUUUAAUUUAUUUCUUCAAUGCCUCGACCUGCCGCAGGGGUCCGGGAUUGGGAAUCCGCCCAUCUGGGGGCCUCUUCUGCUUUCUCGGGAAUUUUCAUCUAGGAUGGAAUUCUCGGGUGCCAA` is recorded as 0.867.
`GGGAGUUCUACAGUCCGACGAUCCCCCCUCAUGGUCGUCUGGGGGACAGAGGUGGUCUGUGUUUACAAGGGCAGUCAAGUCCAGUCACCCAUAUUACUCAUCAAUGUUAGACGAAGCCUUGAGCUGAAGGAGGUGGAAUUCUCGGGUGCCAA`: “RBNS enrichment (R)” 0.619.
For `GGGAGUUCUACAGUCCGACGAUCCGUAUAGCAAGUUUUUUGCUCAUCAGCAGAGAGCAACAGAUGUUUUAUUGAGUGAAGCCUUAAAAAGCACACACCACACACAGCUAACUGCCAAAAUACAUUGACCGUAGUGGAAUUCUCGGGUGCCAA`, “RBNS enrichment (R)” read 0.288.
For `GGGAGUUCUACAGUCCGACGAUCGUGCUGUGUGUCCCUCGCAAGAAGCACAGGAAAGAGAAGUUUCUUUAGUAGCCACUAGACAACCACCCUUUCUGAAAGCAAACAGUGCUGCUCUUUAUUCCAGACAAGGCUGGAAUUCUCGGGUGCCAA`, “RBNS enrichment (R)” read 0.194.
Under “RBNS enrichment (R)”, `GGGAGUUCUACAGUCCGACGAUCUGAAAGUGAACUGCUGUUUGCCUGAUUGGUAAACCAACACACUACAAUUGAUAUCAAAAGGUUUCUCCUGUAAUAUUUUAUCCCUGGACUUGUCAAGUGAAUUCUUUGCAUGGAAUUCUCGGGUGCCAA` is recorded as 4.41.
`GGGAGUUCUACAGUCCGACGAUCCCUCUCAAACGAUCUUUAGAUAGUUAACUUCUACUACUAUUUAACGUUAUCUUUUAGCACUCAUAGAACAAACCAAGAUAUGGAAGAAGACAUAUUCAAAAGGUGGGCUUUGGAAUUCUCGGGUGCCAA`: “RBNS enrichment (R)” 0.671.
`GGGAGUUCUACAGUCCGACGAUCAAAAAUGAUAUAGACGACAGCACUGGCUCUGUGAAGGUGGCAUCUUUCUGGGCAGGCAGGCCAUGGGGCAUGGAGGAGGGUGCAAAGAUAUGGGUUGCUGUCUUCUGGCCUGGAAUUCUCGGGUGCCAA` — result for “RBNS enrichment (R)”: 1.41.
`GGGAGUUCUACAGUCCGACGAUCCGAGAUGAAGUUCUUUAAGUGAUGUAAGCACCCUCACCCUUACUCAAAACUUCCCACCCGACUAAAUUACCAGCAGAUAAACACUCUUCUGUGUGAGUAAACCGAGAGUUUGGAAUUCUCGGGUGCCAA` — result for “RBNS enrichment (R)”: 0.807.
`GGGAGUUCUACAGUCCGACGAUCUACUGGUGCCUGCUGCCAGCCAUCUGGGAGUGGGUGAACAGCACCCCGCCGCUUCCCCCACACGCUUGCUCGGCGCUCUGACUUCUAGGAGCACAAGAGAGGAGCCUGUGUGGAAUUCUCGGGUGCCAA`: “RBNS enrichment (R)” 0.186.
Under “RBNS enrichment (R)”, `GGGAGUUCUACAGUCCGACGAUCCAGCUUGGCUUGGCUUUGGCUGUUGGGGAGGAGUCCCUGCCAUCCCGGUGAGCCUGGGGCUGUUGCUUAGGGUCUUCUGGGUGGACACGUGGAGAAAGAGAAGGCAAACGUGGAAUUCUCGGGUGCCAA` is recorded as 0.412.
For `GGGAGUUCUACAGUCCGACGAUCUUGUUGUCAACUGUCACUGUUUCUUCCAAAAGUCACAAUUUGUACAAGAACCUUUGCUUUCCUUAGACUUGUUCUGCAUUUUAUUUUUUAUUUCUCACCAAAAUAAAAGCUGGAAUUCUCGGGUGCCAA`, “RBNS enrichment (R)” read 0.533.

Set 2
Target: Histone acetyltransferase KAT6A, winged helix 1, GST fusion (KAT6A, Homo sapiens, UniProt Q92794, residues 1-85)
Method: protein binding microarray
Form: double-stranded DNA, one strand shown
Matrix: in vitro
Concentration: not given
Setting: 8-mer, flanks averaged, mean of 2 arrays, mostly near background
Relative to: not given
Reading: higher = stronger binding
Residues (chain): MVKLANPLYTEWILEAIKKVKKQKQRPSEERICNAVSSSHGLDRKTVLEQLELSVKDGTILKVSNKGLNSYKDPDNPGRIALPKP
For `GTGCATGA`, the E-score was -0.127.
For `AATAGATT`, the E-score was -0.138.
`AATCTGCT` has an E-score of -0.149.
`ACAGCTAA` has an E-score of -0.103.
With `CCATACAA` the E-score was -0.204.
With `ATTGTATG` the E-score was -0.137.
The E-score of `GAACAGTC` is reported as -0.108.
For `GCTATTTA`, the E-score was -0.0627.
For `CGAGGCCC`, the E-score was 0.118.
`AAGTATAT` gave an E-score of -0.0729.
The E-score of `CGTCACAA` is reported as 0.0452.
For `GCCTTTAA`, the E-score was 0.0782.
`ATACCCCG` gave an E-score of 0.205.
With `ACGATGTG` the E-score was -0.15.
`AGTGGTCC` gave an E-score of -0.0788.
With `AAACTTGA` the E-score was -0.173.
With `CAGGCCGA` the E-score was 0.0707.
The E-score of `ATCTTTTG` is reported as -0.0781.
`AGTCTCCG` has an E-score of 0.127.
`AGTCCCAA` has an E-score of -0.201.
`CCTGATAG` has an E-score of -0.103.
With `AACATGTA` the E-score was -0.106.
The E-score of `CTCCAATA` is reported as -0.119.
`AGTAGTAC` gave an E-score of 0.0955.
For `TATAGAAA`, the E-score was -0.162.

Set 3
Target: Prothrombin, mature alpha-thrombin (F2, Homo sapiens, UniProt P00734)
Method: aptamer microarray, sandwich
Form: DNA with 2'F-ANA
Matrix: in vitro
Concentration: 200 nM
Setting: whole 15-mer aptamer, many near background
Together with: Cy3 exosite-II aptamer, 400 nM
Reading: higher = stronger binding
Oligonucleotide: GGTTGGTGTGGTTGG
For `2'F-ANA at 1 2 7 9 10 12 14 15`, “mean fluorescence intensity” read 65.7 a.u.
`2'F-ANA at 1 3 4 5 7 8 9 10 12 14 15` — result for “mean fluorescence intensity”: 48.8 a.u.
`2'F-ANA at 1 3 4 5 8 10 11 12 13 14`: “mean fluorescence intensity” 45.4 a.u.
`2'F-ANA at 1 5 6 7 12 13 14 15`: “mean fluorescence intensity” 47.6 a.u.
`2'F-ANA at 1 2 4 5 7 8 9 11`: “mean fluorescence intensity” 56.5 a.u.
Under “mean fluorescence intensity”, `2'F-ANA at 1 2 9 10 12` is recorded as 67.9 a.u.
For `2'F-ANA at 1 2 3 4 6 7 9 11 13`, “mean fluorescence intensity” read 90.7 a.u.
For `2'F-ANA at 1 2 3 4 5 7 9 10 11 15`, “mean fluorescence intensity” read 49.2 a.u.
`2'F-ANA at 1 3 4 6 8 9 11 12 13 14 15` — result for “mean fluorescence intensity”: 179 a.u.
For `2'F-ANA at 1 2 3 10 13 15`, “mean fluorescence intensity” read 68.8 a.u.
`2'F-ANA at 2 4 5 7 10 12 13 15`: “mean fluorescence intensity” 48.4 a.u.
Under “mean fluorescence intensity”, `2'F-ANA at 2 3 4 6 7 8 9 10 13 15` is recorded as 211 a.u.
Under “mean fluorescence intensity”, `2'F-ANA at 3 4 5 6 8 10 11 12 13 14 15` is recorded as 68.1 a.u.
`2'F-ANA at 4 6`: “mean fluorescence intensity” 365 a.u.
`2'F-ANA at 1 2 3 4 5 6 7 10 12 13 15` — result for “mean fluorescence intensity”: 51.6 a.u.
Under “mean fluorescence intensity”, `2'F-ANA at 2 3 8 10 14 15` is recorded as 306 a.u.
`2'F-ANA at 2 4 5 6 7 8 9 10 13 14`: “mean fluorescence intensity” 50.5 a.u.

Set 4
Target: Fragile X messenger ribonucleoprotein 1, C-terminal low-complexity region (Fmr1, Mus musculus, UniProt P35922)
Method: RNA Bind-n-Seq
Form: RNA
Matrix: in vitro
Concentration: 200 nM
Setting: whole 134-nt RNA, ends assumed
Together with: 150 mM KCl
Relative to: input library
Reading: higher = stronger binding
For `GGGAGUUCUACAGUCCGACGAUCUCCUGUGCUACACAUCGUAUGUACCGAAUCAAAUUUAAACCCCCCCAAAUUUUUUUAAAAAAGUAUUAUGUUACGCCGUUCGGAUCUGCAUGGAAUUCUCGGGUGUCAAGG`, the log2 enrichment was 0.543.
For `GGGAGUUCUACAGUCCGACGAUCUCCUGUGCUACACAUCGUAUGUACCGAAUCGGGGUUUUUUUGGGGAGGGGAAAAAGGGGAAAGUAUUAUGUUACGCCGUUCGGAUCUGCAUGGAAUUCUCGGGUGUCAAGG`, the log2 enrichment was 0.447.
The log2 enrichment of `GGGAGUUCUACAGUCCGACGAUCCCUCAAGUCCUGUGCUACACAUCGUAUGUACCGAAUCGGCCGGGCCGGCCGGAAAGUAUUAUGUUACGCCGUUCGGAUCUGCACUUCCAGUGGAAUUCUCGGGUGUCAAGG` is reported as -0.288.
For `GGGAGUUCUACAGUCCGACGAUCGUCCUGUGCUACACAUCGUAUGUACCGAAUCGGGGAGGGGUUUUUUUGGGGUUUGGGGAAAGUAUUAUGUUACGCCGUUCGGAUCUGCACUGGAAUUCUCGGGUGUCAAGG`, the log2 enrichment was 0.706.
The log2 enrichment of `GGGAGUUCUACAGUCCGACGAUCACCAUGCAGGUGGGCAUCUUUGGGACGUGGGGCAAGGGGGGGAUAGGGAGGGGGGUAACACUUUGGGAACAGGUGGUCCCAGGUCGUUUCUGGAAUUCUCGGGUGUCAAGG` is reported as 0.983.
`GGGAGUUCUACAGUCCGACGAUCACCAUGCAGGUGGGCAUCUUUGGGAAGUGGGGCAAGGGGGGGAUAGGGAGGUGGGUAACACUUUGGGAACAGGUGGUCCCAGGUCGUUUCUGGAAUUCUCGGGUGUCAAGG` gave a log2 enrichment of 0.873.
For `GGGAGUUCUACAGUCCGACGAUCUCCUCAAGUCCUGUGCUACACAUCGUAUGUACCGAAUCGGAGGUGGAAAGGAAAGUAUUAUGUUACGCCGUUCGGAUCUGCACUUCCAGCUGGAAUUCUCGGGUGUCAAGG`, the log2 enrichment was -0.57.
The log2 enrichment of `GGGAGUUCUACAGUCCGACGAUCAGUCCUGUGCUACACAUCGUAUGUACCGAAUCGGGCCCCCGGGCCCCCGGCCCCCGGGAAAGUAUUAUGUUACGCCGUUCGGAUCUGCACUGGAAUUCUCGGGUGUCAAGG` is reported as -0.889.
The log2 enrichment of `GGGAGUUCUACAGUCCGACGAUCAGUCCUGUGCUACACAUCGUAUGUACCGAAUCGGGGUUUGGGGAAAAAGGGGAGGGGAAAGUAUUAUGUUACGCCGUUCGGAUCUGCACUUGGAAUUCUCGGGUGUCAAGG` is reported as 0.69.
With `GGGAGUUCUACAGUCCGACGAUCACCAUGCAGGUGGGCAUCUUUGGGAAGUGGGGCAAGGGGGGGAUAGGGAGGGGGGUAACACUUUGGGAACAGGUGGUCGCAGGUCGUUUCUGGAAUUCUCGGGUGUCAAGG` the log2 enrichment was 0.664.
The log2 enrichment of `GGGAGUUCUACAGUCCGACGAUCCAAGUCCUGUGCUACACAUCGUAUGUACCGAAUCGGGGAAAGGAAAGGGAAAGGGGAAAGUAUUAUGUUACGCCGUUCGGAUCUGCACUUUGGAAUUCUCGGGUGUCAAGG` is reported as 0.349.
`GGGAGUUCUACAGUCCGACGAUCCACCGACAACACGCACCCACACAGACACAGAGGGAAGGGGUUGGGAUGGGGACAGGGUGCACAGCAGGGCGGGGUAGGACCCCAGCCCCUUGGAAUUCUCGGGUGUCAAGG` has a log2 enrichment of 1.29.
`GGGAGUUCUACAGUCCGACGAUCAAGUCCUGUGCUACACAUCGUAUGUACCGAAUCGGGAGGGAAAGGGUUUUUUUGGGAAAGUAUUAUGUUACGCCGUUCGGAUCUGCACUUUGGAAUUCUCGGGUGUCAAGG` gave a log2 enrichment of 0.665.
The log2 enrichment of `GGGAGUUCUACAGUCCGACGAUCUGGGCCUGGUGGCAUGCGGGGAGGAAGAGGUGGCCUCAUGGAUCGUGGUGGUCCCGGUGGAAUGUUCAGAGGUGGCCGUGGUGGAGACAGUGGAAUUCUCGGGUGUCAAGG` is reported as 0.469.
